Results collected from several papers.
Each line is one published result; not all experiments were run side by side. ± marks the error that the study gave. No end group written: not given here.
B1: bicyclic; chain AATCHCRRSCYSTEYSYGTCTVMGINHRFCCL (also: bicyclic or more (positions not given here))
B2: disulfide; chain GLPVCGETCVGGTCNTPGCTCSWPVCTRN (disulfide (positions not given here))

Molecule | tested on | test | test system | conditions | scale | quantity | result
KTKEGVVHGVATVA |  | far-UV circular dichroism | peptide, PBS | 10 µM, pH 7.4, 25 °C |  | secondary structure content | 30.1%
CTOP |  | RP-HPLC | HALO C18 column | 25 µM, formic acid/methanol, 25 min gradient |  | retention time | 14.1 min
Teicoplanin |  | UPLC-MS/MS | critically ill haematology patients, serum | dose not given |  | highest total concentration | 98.5 mg/L
coproporphyrin I |  |  | human, plasma | control day |  | mean daily plasma concentration | 0.798 ± 0.032 nM
equol sulfate |  |  | human, cerebrospinal fluid | dose not given, mean |  | CSF concentration | not detected
coproporphyrin I |  |  | healthy human volunteers, urine | dose not given, 0-24 h, median, cumulative urine, added: ezetimibe plus rifampin |  | urine concentration | 19.5 nM
SEKHFRETEV | human MAGI1-3/6 PDZ construct (MBP fusion) | surface plasmon resonance | peptide | concentration not given | higher = stronger binding | normalised SPR binding response | 7.8 normalised RU
daptomycin |  |  | stock solution | 24 months, -40 °C |  | recovery | 101%
B1 |  | sedimentation velocity AUC | 10 mM Tris-maleate | 160 µM, pH 6.4, 20 °C |  | sedimentation coefficient S20,w | 0.808 S
[177Lu]Lu-DOTA-TATE |  | radio-HPLC | labelling formulation with quenchers | 24 h, 50 MBq/nmol |  | radiochemical purity | 93.4 ± 2.1%
Rilpivirine docusate |  |  | Labrasol ALF | mean of three |  | kinetic solubility | > 500 mg/mL
B2 |  | RP-HPLC | aqueous NH4HCO3, isopropanol | concentration not given, pH 8.5, room temperature, 50% v/v isopropanol, no redox |  | conversion to native fold | < 5%
ESLSLSLSLSLSLEGTVFTSWEEYLDWV |  | AFM | peptide, dried on mica from water | 0.1 wt% |  | nanofibre width | 9.6 ± 1.2 nm
GSGAGSETVV | human SCRIB PDZ3-4 tandem (MBP fusion) | automated holdup | peptide, crude extract | concentration not given, uncorrected, unit not given | relative to: biotin control resin, higher = stronger binding | binding intensity | 0.386
Polymyxin B |  | untargeted LC-MS metabolomics, refers to: carnosine | Sprague-Dawley rat, right cerebral cortex | intracerebroventricular, 0.75 mg/kg, 1 h | relative to: NaCl control | log2 fold change | -4.7
caspofungin |  |  | adult ICU patients, mITT, serum | dose not given, day 4 |  | albumin | 25.9 g/L
colistin | Enterobacter cloacae | broth microdilution | clinical isolate RKI-No_348/15 |  |  | MIC | ≤ 0.5 mg/L
regorafenib N-β-glucuronide |  |  | wild-type mice | oral, regorafenib single dose, molecular weight corrected |  | metabolite to parent AUC ratio | 0.73%
GPSPPTYPGDDAPVEDLIRFYDNLQQYLNVVTRHRY |  | CD thermal denaturation | peptide, sodium phosphate buffer with NaCl | 30 µM, pH 7.4 |  | melting temperature | 61.7 ± 0.6 °C
TFFYGGSRGRRNNFRTEEY-OH (C-acid) |  | in situ brain perfusion | peptide, mouse, right brain hemisphere | 5 min | relative to: input | brain uptake | 0.062 ± 0.004%
FNA / CGLSGLGVA-NH2 ([18F]FNA-labelled, C-amide) |  | ex vivo gamma counting | peptide, healthy mouse, heart | 60 min post injection |  | tissue uptake | 0.26 %ID/g

Some of these lines once more:
Molecule | tested on | test | test system | conditions | scale | quantity | result
Rilpivirine docusate |  |  | Labrasol ALF | mean of three |  | kinetic solubility | > 500 mg/mL
B2 |  | RP-HPLC | aqueous NH4HCO3, isopropanol | concentration not given, pH 8.5, room temperature, 50% v/v isopropanol, no redox |  | conversion to native fold | < 5%
ESLSLSLSLSLSLEGTVFTSWEEYLDWV |  | AFM | peptide, dried on mica from water | 0.1 wt% |  | nanofibre width | 9.6 ± 1.2 nm
